Published values of several laboratories.
Lines come from different studies, so protocols differ. Several values in a cell are separate wells, animals, samples, runs or records. ± marks the error that the study gave.
UCHL1: Ubiquitin carboxyl-terminal hydrolase isozyme L1 (UCHL1, Homo sapiens, UniProt P09936)
Chain of UniProt P09936 (whole entry, looked up): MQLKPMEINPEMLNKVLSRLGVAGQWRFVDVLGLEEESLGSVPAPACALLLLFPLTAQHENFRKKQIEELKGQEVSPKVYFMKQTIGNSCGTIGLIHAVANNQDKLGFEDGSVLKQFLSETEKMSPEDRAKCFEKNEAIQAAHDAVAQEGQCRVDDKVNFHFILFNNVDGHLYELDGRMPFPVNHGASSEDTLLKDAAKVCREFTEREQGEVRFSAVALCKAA

COc1ccc(-n2nc(C(C)=O)s/c2=N\N=C(/C)c2ccc(NC(=O)c3ccccc3)cc2)cc1 — viability (HepG2; 0.625 µM): 50.2%
CCOC(=O)c1nn(-c2cccc(Cl)c2)/c(=N/N=C(\C)c2ccc(NC(=O)c3ccccc3)cc2)s1 — cytotoxicity (HepG2; MTT; 1.25 µM): 97.3%
CC(C)[C@H](NC(=O)[C@H](Cc1ccc(O)cc1)NC(=O)[C@H](Cc1ccc(O)cc1)NC(=O)[C@@H]1CCCN1C(=O)[C@H](CCC(=O)O)NC(=O)[C@H](CCC(=O)O)NC(=O)[C@H](Cc1c[nH]c2ccccc12)NC(=O)[C@@H]1CCCN1C(=O)[C@@H](NC(=O)[C@H](CCC(N)=O)NC(=O)c1ccc2c(c1)C(=O)OC21c2ccc(O)cc2Oc2cc(O)ccc21)C(C)C)C(=O)N[C@H](C(=O)N[C@@H](CCCCN)C(=O)N[C@@H](CCCCN)C(=O)N[C@@H](CO)C(=O)N[C@@H](CO)C(=O)NCC(=O)NCC(N)=O)C(C)C — plasma concentration (item: total compound; human, plasma; intravenous infusion, 500 mg, 2 h): 587 ng/mL
CC(=O)c1nn(-c2ccc(C)cc2)/c(=N/N=C(\C)c2ccc(NC(=O)c3ccccc3)cc2)s1 — cytotoxicity (HepG2; MTT; 0.625 µM): 94.6%
N#CC(=Cc1ccc(F)cc1)C(=O)Nc1ccc(C(=O)O)cc1 — labelling (UCHL1; covalent, intact protein LC-MS; 12.5 µM): 34.7%
COc1ccc(NC(=O)c2c(Nc3ccccc3)sc(C(=O)NN=Cc3ccc(OC)c(O)c3)c2NC(C)=O)cc1 — active caspase-3 level (HepG2; ELISA; IC50, 24 h): 263 ± 16.1 pg/mL
CC(C)(C)c1cc(O)ccc1O — point of departure (HepG2; high content imaging, item: DNA structure; 24 h, distribution mode 1): 16.6 µM
Nc1ccn([C@H]2CC[C@@H](CO)O2)c(=O)n1 — mitochondrial DNA content (HepG2; qPCR; 0.2 µM, 10 days, 3; baseline: untreated): 57 ± 10.4%
CCOC(=O)/C=C\C(=O)OCC — point of departure (HepG2; item: glutathione; 24 h, representative mode): 10.5 µM
CC(=O)c1nn(-c2ccc(Cl)cc2)/c(=N/N=C(\C)c2ccc(NC(=O)c3ccc(Cl)cc3)cc2)s1 — viability (HepG2; 0.625 µM): 98.1%
N#CC(=Cc1cccnc1)C(=O)NCc1ccccc1 — labelling (UCHL1; covalent, intact protein LC-MS; 12.5 µM): 10.1%
COc1ccc(NC(=O)c2c(Nc3ccccc3)sc(C#N)c2NC(=O)CNc2ccc(Cl)cc2)cc1 — late apoptotic cells (HepG2; annexin V-FITC/PI; concentration not given): 7.85 ± 0.95%
O=C(O)Cc1ccccc1Nc1c(Cl)cccc1Cl — point of departure (HepG2; high content imaging, item: nuclear size; 24 h, distribution mode 2): 692 µM and 871 µM
